Assay results of several laboratories.
A part holds a random share of what one study measured.

Block 1 — method: protein binding microarray; molecule type: double-stranded DNA, one strand shown; sample: in vitro; tested at: not given; baseline: not given; reading: higher = stronger binding
Target: Histone acetyltransferase KAT6A, winged helix 1, GST fusion (KAT6A, Homo sapiens, UniProt Q92794, residues 1-85)
Setting: 8-mer, flanks averaged, mean of 2 arrays, mostly near background
Target sequence (chain): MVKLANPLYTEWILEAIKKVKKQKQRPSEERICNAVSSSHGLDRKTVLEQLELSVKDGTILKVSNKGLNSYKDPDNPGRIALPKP
Oligonucleotide | E-score
ATGCGACC | 0.254
AGGTCGTG | -0.27
CGCCAGGA | 0.0904
AGAGAATA | -0.0251
ATACAGAT | -0.137
CATGCATC | 0.0323

Block 2 — method: RNA Bind-n-Seq; molecule type: RNA; sample: in vitro; tested at: 365 nM; baseline: no-protein control; reading: higher = stronger binding
Target: RNA binding protein fox-1 homolog 2, RRM domain, GST-SBP tag (RBFOX2, Homo sapiens, UniProt O43251-10, residues 100-194)
Setting: natural RNA segment, single round, ends assumed
Shared flanks, not repeated: GGGAGUUCUACAGUCCGACGAUC … UGGAAUUCUCGGGUGCCAA
Residues (chain): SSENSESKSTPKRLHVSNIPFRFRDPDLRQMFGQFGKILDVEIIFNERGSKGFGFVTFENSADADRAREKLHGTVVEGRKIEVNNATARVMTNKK
Oligonucleotide | RBNS enrichment (R)
UUUUUUAAUUGGUGUUAGAUGACAUGAUUAAUAAAAAAGGCAAGAUAUUUUCAGAAUUUGAAUUUCAGUUUUUUUUUUCUUUUGAAAUGUCCCUUUAAGAUUUUUUUAUU | 1.05
CCAAAUAUUCAGUACCUUGGGCAAUCCAGGAAGGGUUUAAAGAGACCUGUUGCUGCAUAGAACUCUCCCUGCCCUACCCCUUAACUCCACCUUAGUGCCAGGGCCGAGGG | 0.256
ACAAAUUGUGGGGCCUUCAAAUUGUUUUUCUCUUUUCAUAUUAAAAAUGGUCUUUCUGUGAACUAGCUUCACAGGGUCAGUGUGGAUGUUUUCUCCCAAGUUAUGAACAC | 0.566
CUCCUUGUAUUCCCACUUUCGUAGUCAUUUCGGUUCUGAUCUUGUCAAACCCAGCCUGACCGCUUCUGACGCCGGGAUGGCCUCGUUACUAGACUUUUCUUUUUAAGGAA | 0.262
GCGGCCCGUGCGCAGCCGCGCUCUGCCCCUCCGUCCCCAGGGUGCAGGCGCGCACCGCCCAACCCCCACCUCCCGGUGUAUGCAGUGGUGAUGCCUAAAGGAAUGUCACG | 1.07
ACAUUGUUUUCCUCACUGGACAGGACUGACAGGAUUACGGGGGUGGUUCCUUUAACUCUUCACCAAGUCCUCUAGCUGUAUUUCUGAAGGCUCUCACACUUCUUCUGUGA | 0.308

Block 3 — method: protein-binding microarray; molecule type: double-stranded DNA, one strand shown; sample: in vitro; tested at: 0.8 µM; setting: whole 60-bp probe, no competitor; reading: higher = stronger binding; shared flanks, not repeated: … GTCTTGATTCGCTTGACGCTGCTG
Target: Centromere-binding protein 1, full length, N-terminal tag (CBF1, Saccharomyces cerevisiae, UniProt P17106, residues 1-351)
UniProt P17106, sequence (whole entry, looked up): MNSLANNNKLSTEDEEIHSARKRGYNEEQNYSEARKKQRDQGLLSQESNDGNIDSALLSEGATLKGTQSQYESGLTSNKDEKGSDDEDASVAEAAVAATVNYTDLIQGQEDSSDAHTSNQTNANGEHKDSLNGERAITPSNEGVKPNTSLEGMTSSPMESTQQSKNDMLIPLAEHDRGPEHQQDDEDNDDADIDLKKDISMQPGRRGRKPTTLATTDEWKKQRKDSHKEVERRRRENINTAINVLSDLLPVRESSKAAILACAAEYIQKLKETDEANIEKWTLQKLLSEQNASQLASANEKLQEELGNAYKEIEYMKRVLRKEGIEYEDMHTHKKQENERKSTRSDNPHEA
Oligonucleotide | fluorescence intensity [a.u.]
CTATAAATACTAAATGGTCATGAGGAAAGAAAATTC | 975
CTACGCTTGTTTAAACATGTGCTAGGTAAGCGATTC | 871
GAATTTCCACCGTGTAAGGTGACGGGACTATGGTAG | 541
GAATTTCATTATTGGCACGAGTAGCAGTCGTTGTAG | 655
CTAATTTAGTGTTGCCACCAGATGGGTCTATTTTTC | 497
GAATCGGTGCATTGGCATGCGCAAGCATTCGATTAG | 497
CTAAGGAAGAAGCAACGCACGCATGGAAAACACTTC | 541
GAAAAAAGATACAAGAACGTGGCGGACAAGAAGTAG | 606

Mixed results
Substance | target | test | test system | setting | how to read | quantity | value
PhoQ, residues 284 288 289 292 302 303 ASHLAV | PhoP, residues 12 14 15 18 19 QQAYL (Escherichia coli, UniProt P23836) | Sort-seq, item: YFP reporter | E. coli | PhoQ-PhoP variant library, with: 10 µM Mg2+ | baseline: high Mg2+ state, higher = stronger signaling | fold induction | 15

Some of these lines once more (block 3):
Oligonucleotide | fluorescence intensity [a.u.]
GAATTTCATTATTGGCACGAGTAGCAGTCGTTGTAG | 655
